Experimental data pooled from the literature.
Values joined by “and” are separate records of one study, mostly repeats; a detail may differ. ± marks the error that the study gave.
Organism: Escherichia coli

Structure (SMILES)	assay	system	setting	scale	measurement	result
Cc1cc(C(=O)NC(C)(C)COc2cccc3c2C(N)=NS(=O)(=O)N3)cc(C)n1	Ames test, confirmatory	WP2 uvrA	1000 µg/plate	reference: solvent control	revertant ratio	0.9
Nc1ccc2cc3ccccc3cc2c1	plate incorporation Ames test	WP2 uvrA	100 µg per plate, added: rat liver S9		revertant colonies per plate	153
Nc1ccc2cc3ccccc3cc2c1	Ames test	WP2 uvrA pKM101	0.4 µg/well, 48 h, with S9		revertant colonies	640 colonies/well and 576 colonies/well and 672 colonies/well
Nc1ccc2cc3ccccc3cc2c1		WP2 uvrA	20 µg/plate, added: rat liver S9	reference: vehicle control	revertant fold increase	5.5
CC(C)N(N=O)C(C)C	mutagenicity, Ames plate incorporation	WP2 uvrA pKM101	150 µg/plate, without S9, methanol		revertant colonies per plate	169 ± 17
COc1cccc(-c2n[nH]c(SCc3ccccn3)n2)c1OC	Ames test, plate incorporation	WP2 uvrA	2.0 mg/plate, with rat liver S9		revertant colonies per plate	43
Nc1ccc2cc3ccccc3cc2c1	Ames test, confirmatory	WP2 uvrA	15 µg/plate, added: rat liver S9	reference: solvent control	revertant ratio	13.8
COS(C)(=O)=O	preincubation Ames test	WP2 uvrA	1 µL per plate		revertant colonies per plate	1090
CNC(=O)c1c(N(C)N=O)ncn1C	mutagenicity, Ames plate incorporation	WP2 uvrA pKM101	500 µg/plate, without S9, methanol		revertant colonies per plate	118 ± 9
CC(=O)N1CCC(C(=O)N2CCN3C(=O)c4cc(-c5ccccc5)ccc4NC(=O)C3C2)CC1 (stereo not drawn)		WP2 uvrA	158 µg/plate, with rat liver S9		revertants per plate	26
COS(C)(=O)=O	Ames test, confirmatory	WP2 uvrA	1000 µg/plate	reference: solvent control	revertant ratio	10.7
CN(CC(C)(C)C)N=O	plate incorporation	WP2uvrA pKM101, methanol	3750 µg/plate, without S9		revertant colonies per plate	141 and 147

Repeated from above:
Structure (SMILES)	assay	system	setting	scale	measurement	result
CN(CC(C)(C)C)N=O	plate incorporation	WP2uvrA pKM101, methanol	3750 µg/plate, without S9		revertant colonies per plate	141 and 147
